Measured values from different studies.
Protocols differ between the studies behind these lines. Several values in a cell are separate wells, animals, samples, runs or records. ± gives the spread as reported. In brackets after ≈: the same amount, converted by molar mass.
UniProt P09936, sequence (whole entry, looked up): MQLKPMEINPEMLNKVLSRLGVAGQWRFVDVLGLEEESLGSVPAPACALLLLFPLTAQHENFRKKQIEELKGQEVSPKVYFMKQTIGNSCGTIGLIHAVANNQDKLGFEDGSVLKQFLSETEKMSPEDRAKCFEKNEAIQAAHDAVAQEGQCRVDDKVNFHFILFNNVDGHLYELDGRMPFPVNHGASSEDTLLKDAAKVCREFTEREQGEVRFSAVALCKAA

Structure (SMILES) | tested on | assay | test system | conditions | how to read | endpoint | value
CCCC(=O)OCSc1ccccc1C(=O)NCCOc1ccnc2ccc(OC(F)(F)F)cc12 | HIV-1 | virus-induced cytopathic effect, inhibitor, XTT | CEM-SS, RF | 6 days |  | EC50 | 2.32 ± 1.48 µM
Cc1ccc2[nH]c3c(c2c1)CCCC3N(C)C(=O)CCl (stereo not drawn) | UCHL1 (Homo sapiens, UniProt P09936) | covalent, intact protein LC-MS |  | 12.5 µM |  | labelling | 12.7%
Clc1ccc(C(c2ccc(Cl)cc2)n2cc[n+](CC(OCc3ccc(Cl)cc3Cl)c3ccc(Cl)cc3Cl)c2)cc1 (stereo not drawn) | Toxoplasma gondii | parasite growth | HFF, bradyzoite, glutamine-induced |  |  | EC90 | 7.56 µM
N=C(N)c1ccc(OCc2cc(Br)cc(COc3ccc(C(=N)N)cc3)c2)cc1 | Escherichia coli |  | BW25113 | in combination, lowest-FICI combination, added: vancomycin |  | MIC | 25 µg/mL
COc1cc(/C=C/C(=O)O)ccc1O | HIV-1 | viral infection | TZM-bl, NL4-3 (CXCR4-tropic) | 48 h |  | IC50 | > 100 µM
COc1cc(C#CC(=O)c2ccc(Cl)cc2)ccc1O | Pseudomonas aeruginosa | static biofilm | PA14 | 10 µM, 24 h | reference: DMSO | biofilm formation | 65%
CN[C@H](CC(C)C)C(=O)N[C@H]1C(=O)N[C@@H](CC(N)=O)C(=O)N[C@H]2C(=O)N[C@H]3C(=O)N[C@H](C(=O)N[C@H](C(=O)O)c4cc(O)cc(O)c4-c4cc3ccc4O)[C@H](O)c3ccc(c(Cl)c3)Oc3cc2cc(c3O[C@@H]2O[C@H](CO)[C@@H](O)[C@H](O)[C@H]2O[C@H]2C[C@](C)(N)[C@H](O)[C@H](C)O2)Oc2ccc(cc2Cl)[C@H]1O | Streptococcus pneumoniae |  | penicillin-resistant, 10 isolates | serum 75% |  | MIC50 | 1 µg/mL
C[C@@H](O)[C@H]1C(=O)N2C(C(=O)O)=C(SCCN=CN)C[C@H]12 | Pseudomonas aeruginosa |  | BAA-2797, mouse, peritonitis model, spleen | intraperitoneal, 10 mg/kg single dose |  | bacterial load | 7.51 log10 CFU and 7.45 log10 CFU and 7.6 log10 CFU and 7.08 log10 CFU and 7.3 log10 CFU and 6.9 log10 CFU
COc1ccc(Nc2cnnc3ccc(-c4ccc(N5CCN(C)CC5)cc4)cc23)nc1 | Leishmania donovani |  | B10R cells |  |  | EC50 | 1.6 µM
C=CC[C@@H]1c2ccc(OC)c(OC)c2CN2CCc3cc4c(cc3[C@H]12)OCO4 | Staphylococcus aureus |  | P2rx7+/+ mice, skin wound infection | dose not given, day 5 | reference: day 0 | relative wound size | 0.25 and 0.34 and 0.52 and 0.46 and 1.03 and 0.3
OC(Cn1cncn1)(Cn1cncn1)c1ccc(F)cc1F | Nakaseomyces glabratus | EUCAST |  | 48 h |  | MIC50 | 0.4 µM
OC(Cn1cncn1)(Cn1cncn1)c1ccc(F)cc1F | Cryptococcus neoformans |  | 134, RPMI 1640 | 24 h, 35 °C |  | MIC | 25 µM
O=C(Nc1ccncc1)c1cc([N+](=O)[O-])ccc1Cl | Toxoplasma gondii | parasite growth, luciferase reporter | HFF, tachyzoite | 72 h |  | EC90 | 1.68 µM
CCN(CCO)CCCC(C)Nc1ccnc2cc(Cl)ccc12 (stereo not drawn) | hepatitis E virus | viral replication, Renilla luciferase replicon | S10-3 replicon, genotype 1 | 0.78 µM, 48 h |  | inhibition | 9.13%
CCCCC[C@H](O)/C=C/[C@@H]1[C@@H](C/C=C\CCCC(=O)O)[C@@H](O)C[C@H]1O | Leishmania martiniquensis | intracellular amastigote growth, alamarBlue | THP-1-derived macrophages | 48 h |  | IC50 | 19.4 ± 6.25 µM
COc1cc(C#CC(O)CC(C)C)ccc1O (stereo not drawn) | Pseudomonas aeruginosa | static biofilm | PA14 | 10 µM, 24 h, static | reference: DMSO | biofilm formation | 75%
CCCCc1ccc(CNc2nc(N(C)C)nc(N(C)C)c2/N=N/c2ccc(Cl)cc2)cc1 | Ostrinia furnacalis |  | corn seedlings | foliar spray, 50 mg/L, 7 days |  | control efficacy | 57%
CCOCCn1cnc2nc(NCc3ccc(Cl)c(Cl)c3)[nH]c(=O)c21 | Clostridioides difficile | agar dilution anaerobic | 3588 | 48 h |  | MIC | 1 µg/mL
COc1cc(C#CC(O)c2ccccc2OC)ccc1O (stereo not drawn) | Pseudomonas aeruginosa | static biofilm | PA14 | 10 µM, 24 h, static | reference: DMSO | biofilm formation | 61%
CCc1nc(N)nc(N)c1-c1ccc(Cl)cc1 | Toxoplasma gondii | [3H]uracil incorporation | human fibroblasts, RH wild type | 50 µM |  | parasite survival | 23.2%
CC1CS(=O)(=O)CCN1/N=C/c1ccc([N+](=O)[O-])o1 (stereo not drawn) | Trypanosoma cruzi | trypomastigote release | CHO | 5 µM |  | inhibition | 82%
O=C(C#Cc1ccc(F)c(F)c1)c1ccc(Cl)cc1 | Pseudomonas aeruginosa | static biofilm | PA14 | 10 µM, 24 h, static | reference: DMSO | biofilm formation | 62%
CC(=O)NC[C@H]1CN(c2ccc(N3CCOCC3)c(F)c2)C(=O)O1 | Streptococcus pneumoniae | broth microdilution | penicillin-resistant isolates |  |  | MIC90 | 0.5 µg/mL (≈ 1.48 µM)
CCCC(=O)OCSc1ccccc1C(=O)NCCn1cc(C(=O)NCc2cccnc2)c(=O)c2cc3c(cc21)OCO3 | HIV-1 | virus-induced cytopathic effect, inhibitor, XTT | CEM-SS, RF | 6 days |  | EC50 | 1.51 ± 0.54 µM

Structure (SMILES) | tested on | assay | test system | conditions | how to read | endpoint | value
Cc1ccc(C(=O)N(CCCN)[C@@H](c2oc3cc(Cl)ccc3c(=O)c2Cc2ccccc2)C(C)C)cc1 | Toxoplasma gondii | parasite growth | HFF, bradyzoite, alkaline-induced |  |  | EC50 | 6.6 µM
Cc1ccc(NC(=O)N2Cc3[nH]cnc3C[C@H]2c2nc(-c3ccc4c(c3)OCO4)no2)cc1 | Caenorhabditis elegans |  | N2 | 100 µM |  | mean lifespan | 18.6 days
CCc1cc(Nc2cc(=O)n(CCCCO)c(=O)[nH]2)ccc1C | Clostridioides difficile | agar dilution anaerobic | 3581 | 48 h |  | MIC | 8 µg/mL
CCCCCCCCCCCC1NCCc2cc(O)c(O)cc21 (stereo not drawn) | Proteus vulgaris |  | CPCC 160013 | 40 µg per disc, 24 h, 37 °C |  | inhibition zone diameter | 11.4 mm
COc1ccccc1C(=O)C#Cc1ccc(F)c(F)c1 | Pseudomonas aeruginosa | RT-qPCR, measured: lasB | biofilm cells | 10 µM, 24 h | reference: untreated | mRNA level | 51%
CCc1nn(C)c2nc(-c3ccc(C(=O)O)cc3)nc(NCc3ccc(F)cc3)c12 | Cryptosporidium parvum |  | HCT-8 | EC50, 3 h | reference: DMSO control | parasite number | 105% and 109% and 110% and 106%
O=c1[nH]c(NCc2ccc(Cl)c(Cl)c2)nc2ncn(CCN3CCOCC3)c12 | Clostridioides difficile | agar dilution anaerobic | ATCC 4381 | 48 h |  | MIC | 1 µg/mL
COc1cc(C#CC(=O)C2CCCCC2)ccc1O | Pseudomonas aeruginosa | static biofilm | PA14 | 10 µM, 24 h | reference: DMSO | biofilm formation | 42%
Cl.Cl.NCc1ccc(-c2nc(-c3ccc(CN4CCCC4)cc3)no2)cc1 | Clostridioides difficile | spore germination | ATCC 43255 | 45 µM |  | activity | inactive
Nc1nc(-c2ccccc2)nc2[nH]nc(Nc3ccc(C(F)(F)F)cc3)c12 | coxsackievirus B3 |  | 31-1-93, NMRI mice, CVB3 chronic myocarditis | oral, 100 mg/kg twice daily, day 12, dosed days 3 to 10, score scale 0 to 7 | direction not given | clinical score | 1.2
COc1cccc(C(O)C#Cc2ccc(O)c(OC)c2)c1 (stereo not drawn) | Pseudomonas aeruginosa | static biofilm | PA14 | 10 µM, 24 h | reference: DMSO | biofilm formation | 62%
CO[C@H]1/C=C/O[C@@]2(C)Oc3c(C)c(O)c4c(c3C2=O)C2=NC3(CCN(CC(C)C)CC3)NC2=C(NC(=O)/C(C)=C\C=C\[C@H](C)[C@H](O)[C@@H](C)[C@@H](O)[C@@H](C)[C@H](OC(C)=O)[C@@H]1C)C4=O | Mycobacteroides abscessus | bacterial growth | subsp. abscessus ATCC 19977 |  |  | IC90 | 2.57 µM
OC[C@H]1O[C@@H](O[C@@H]2[C@@H](O)[C@H](O[C@@H]3[C@@H](O)[C@H](O[C@@H]4[C@@H](O)[C@H](O[C@H]5[C@H](O)[C@@H](CO)OC(O)[C@@H]5O)O[C@H](CO)[C@H]4O)O[C@H](CO)[C@H]3O)O[C@H](CO)[C@H]2O)[C@H](O)[C@@H](O)[C@@H]1O (stereo partly drawn) | Bacteroides uniformis | binding, ITC |  | pH 7.0, 25 °C, distal domain |  | -TΔS | 22.9 kcal/mol
CC(C)C[C@H](NC(=O)C[C@H](O)[C@H](CC(C)C)NC(=O)[C@H](Cc1c[nH]cn1)NC(=O)CNC(=O)[C@@H](NC(=O)[C@H](C)NC(=O)[C@H](Cc1c[nH]c2ccccc12)NC(=O)[C@H](CCC(N)=O)NC(=O)[C@@H](Cc1ccccc1)NC(=O)COCCOCCNC(=O)CCC(C(=O)O)N1CCN(CC(=O)O)CCN(CC(=O)O)CC1)C(C)C)C(N)=O (stereo partly drawn) [lutetium-177 labelled] |  |  | female BALB/c nu/nu mice, bone | intravenous, 50 pmol, 24 h |  | tissue uptake | 0.07 ± 0.01 %ID/g
Oc1ccc2c(c1)OC[C@]1(O)Cc3cc(O)c(O)cc3[C@H]21 | Toxoplasma gondii | parasite growth | HFF, bradyzoite, glutamine-induced |  |  | EC90 | 1.1 µM
N=C(N)c1ccc(OCc2ccccc2COc2ccc(C(=N)N)cc2)cc1 | Escherichia coli | checkerboard | mcr-3 polymyxin-resistant | concentration not given, added: rifampicin |  | MIC of compound in combination | 25 µg/mL
CCNCc1nc2c(N)nc3ccccc3c2n1CC(C)(C)O | Toxoplasma gondii | parasite growth | HFF, bradyzoite, glutamine-induced |  |  | EC90 | 30 µM
OC[C@H]1O[C@@H](O[C@@H]2[C@@H](O)[C@H](O[C@@H]3[C@@H](O)[C@H](O[C@H]4[C@H](O)[C@@H](CO)OC(O)[C@@H]4O)O[C@H](CO)[C@H]3O)O[C@H](CO)[C@H]2O)[C@H](O)[C@@H](O)[C@@H]1O (stereo partly drawn) | Bacteroides uniformis | binding, ITC |  | pH 7.0, 25 °C, distal domain |  | ΔG | -24.7 kcal/mol
CC(=O)[C@]1(O)Cc2c(O)c3c(c(O)c2[C@@H](O[C@H]2C[C@H](N)[C@H](O)[C@H](C)O2)C1)C(=O)c1ccccc1C3=O | Toxoplasma gondii | parasite growth, luciferase reporter | HFF, tachyzoite | 72 h |  | EC90 | 0.839 µM
OC[C@H]1O[C@@H](O[C@@H]2[C@@H](O)[C@H](O[C@@H]3[C@@H](O)[C@H](O[C@@H]4[C@@H](O)[C@H](O[C@@H]5[C@@H](O)[C@H](O[C@H]6[C@H](O)[C@@H](CO)OC(O)[C@@H]6O)O[C@H](CO)[C@H]5O)O[C@H](CO)[C@H]4O)O[C@H](CO)[C@H]3O)O[C@H](CO)[C@H]2O)[C@H](O)[C@@H](O)[C@@H]1O (stereo partly drawn) | Bacteroides uniformis | binding, ITC |  | pH 7.0, 25 °C, middle domain |  | ΔH | -48.8 kcal/mol
CC[C@H]1CN2CCc3cc(OC)c(OC)cc3[C@@H]2C[C@@H]1C[C@H]1NCCc2cc(OC)c(OC)cc21 | Toxoplasma gondii | bradyzoite growth |  | glutamine-induced bradyzoites, glucose-free medium |  | EC50 | 1.08 µM
CC(C)n1ncc2c(C(=O)NCC3(C)CNC3)cc(C3CC3)nc21 | Enterovirus D68 | cytopathic effect | RD, US/KY/14-18953 | 5 nM |  | cell protection | 1.13% and -0.282%
O=C(C#Cc1ccc(F)c(F)c1)c1ccccc1Cl | Pseudomonas aeruginosa | static biofilm | PA14 | 10 µM, 24 h | reference: DMSO | biofilm formation | 50%
CC(C)(C)c1cc(/C=C(\C#N)C(N)=S)cc(C(C)(C)C)c1O | Toxoplasma gondii | parasite growth | HFF, bradyzoite, glutamine-induced |  |  | EC50 | 3.13 µM

Repeated from above:
Structure (SMILES) | tested on | assay | test system | conditions | how to read | endpoint | value
OC[C@H]1O[C@@H](O[C@@H]2[C@@H](O)[C@H](O[C@@H]3[C@@H](O)[C@H](O[C@@H]4[C@@H](O)[C@H](O[C@@H]5[C@@H](O)[C@H](O[C@H]6[C@H](O)[C@@H](CO)OC(O)[C@@H]6O)O[C@H](CO)[C@H]5O)O[C@H](CO)[C@H]4O)O[C@H](CO)[C@H]3O)O[C@H](CO)[C@H]2O)[C@H](O)[C@@H](O)[C@@H]1O (stereo partly drawn) | Bacteroides uniformis | binding, ITC |  | pH 7.0, 25 °C, middle domain |  | ΔH | -48.8 kcal/mol
COc1ccccc1C(=O)C#Cc1ccc(F)c(F)c1 | Pseudomonas aeruginosa | RT-qPCR, measured: lasB | biofilm cells | 10 µM, 24 h | reference: untreated | mRNA level | 51%
CCOCCn1cnc2nc(NCc3ccc(Cl)c(Cl)c3)[nH]c(=O)c21 | Clostridioides difficile | agar dilution anaerobic | 3588 | 48 h |  | MIC | 1 µg/mL
COc1cc(C#CC(O)CC(C)C)ccc1O (stereo not drawn) | Pseudomonas aeruginosa | static biofilm | PA14 | 10 µM, 24 h, static | reference: DMSO | biofilm formation | 75%
